{"data": "Published values pooled from the literature", "note": "Every numbered part comes from another study and shows a few of its results, in no order."}
{"data": "Sample 1", "target": "Centromere-binding protein 1, full length, N-terminal tag (CBF1, Saccharomyces cerevisiae, UniProt P17106, residues 1-351)", "method": "protein-binding microarray", "form": "double-stranded DNA, one strand shown", "sample": "in vitro", "concentration": "0.8 µM", "notes": "whole 60-bp probe, no competitor", "direction": "higher = stronger binding", "all sequences stand within": "… GTCTTGATTCGCTTGACGCTGCTG", "chain of UniProt P17106 (whole entry, looked up)": "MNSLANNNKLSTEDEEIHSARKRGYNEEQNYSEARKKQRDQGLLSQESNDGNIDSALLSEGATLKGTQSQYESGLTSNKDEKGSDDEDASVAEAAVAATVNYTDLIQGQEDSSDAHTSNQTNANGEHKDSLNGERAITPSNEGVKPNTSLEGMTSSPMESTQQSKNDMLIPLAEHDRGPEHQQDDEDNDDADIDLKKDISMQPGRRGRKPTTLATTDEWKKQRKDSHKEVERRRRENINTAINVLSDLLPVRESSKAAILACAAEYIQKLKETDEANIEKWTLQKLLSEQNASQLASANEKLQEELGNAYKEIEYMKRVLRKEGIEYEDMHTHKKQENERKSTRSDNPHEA"}
{"Oligonucleotide": "CTAGCATAACAGGATCACGGTTATCACCTGTTTTTC", "fluorescence intensity": "773 a.u."}
{"Oligonucleotide": "CCTAACTACTATATAAGCGTGCGATAGCTTCGTACA", "fluorescence intensity": "517 a.u."}
{"Oligonucleotide": "CTAATGACGGATCATCACCACACGAAGAATAAATTC", "fluorescence intensity": "558 a.u."}
{"Oligonucleotide": "GAATTTGTTAGTGCTGATGTAATCTTAACAAGATAG", "fluorescence intensity": "566 a.u."}
{"Oligonucleotide": "GAAGAGTCACTCCCCCGTGTGTTCGGTCCGGCCTAG", "fluorescence intensity": "549 a.u."}
{"Oligonucleotide": "CTATACATGCCGGGGCTCGTGCTTATTCATATTTTC", "fluorescence intensity": "578 a.u."}
{"Oligonucleotide": "CTATTTTGGAAAAGCAACGTGCGCAACAATGAATTC", "fluorescence intensity": "704 a.u."}
{"Oligonucleotide": "TGTACGAAGCTATATCACCCGAATATAGTAGTTAGG", "fluorescence intensity": "516 a.u."}
{"data": "Sample 2", "target": "Interferon regulatory factor 7, full length, phosphomimetic (IRF7, Homo sapiens, UniProt Q92985, residues 1-503, S101K/S471D/S472D/S475D/S476D/S477D/S483D/S484D/S487D)", "method": "protein-binding microarray", "form": "double-stranded DNA, one strand shown", "sample": "in vitro", "concentration": "250 nM", "notes": "60-bp whole probe", "added": "salmon DNA 0.4 mg/ml", "baseline": "random background probes", "direction": "higher = stronger binding", "all sequences stand within": "GCCTAGCAC … GTCTTGATTCGCTTGACGCTGCTG", "Residues (chain)": "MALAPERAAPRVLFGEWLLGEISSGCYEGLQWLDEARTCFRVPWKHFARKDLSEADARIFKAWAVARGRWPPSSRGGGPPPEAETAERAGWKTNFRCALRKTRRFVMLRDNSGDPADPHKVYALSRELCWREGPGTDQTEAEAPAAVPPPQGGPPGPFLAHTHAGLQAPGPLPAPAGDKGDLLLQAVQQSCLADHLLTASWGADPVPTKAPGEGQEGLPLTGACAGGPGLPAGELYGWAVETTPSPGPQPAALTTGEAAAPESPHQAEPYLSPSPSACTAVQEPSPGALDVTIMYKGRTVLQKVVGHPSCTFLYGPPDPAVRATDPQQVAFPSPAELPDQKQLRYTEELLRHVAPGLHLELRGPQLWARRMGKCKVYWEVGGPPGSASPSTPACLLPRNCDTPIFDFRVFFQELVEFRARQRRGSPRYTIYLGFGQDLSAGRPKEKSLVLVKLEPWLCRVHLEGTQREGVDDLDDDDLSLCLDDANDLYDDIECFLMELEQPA"}
{"Oligonucleotide": "TTAGATATCTGGTTTCGATTAGTGCTA", "log fluorescence [z-score]": 8.57}
{"Oligonucleotide": "TACGGACTGGGGTATCGGGACGTGCTA", "log fluorescence [z-score]": -0.454}
{"Oligonucleotide": "TCAATTTTCATTTTCCAACTGTGCTAG", "log fluorescence [z-score]": 2.2}
{"Oligonucleotide": "TAAGGTCTCGGTCTCGGTTAGTGCTAG", "log fluorescence [z-score]": 2.52}
{"Oligonucleotide": "CACGGACTGCTTATCCTGACGTGCTAG", "log fluorescence [z-score]": -0.687}
{"data": "Sample 3", "target": "Probable WRKY transcription factor 50, DNA-binding domain (WRKY50, Arabidopsis thaliana, UniProt Q8VWQ5, residues 99-173)", "method": "DNA-protein interaction ELISA", "form": "double-stranded DNA, one strand shown", "sample": "in vitro, bacterial lysate", "concentration": "not given", "notes": "whole dsDNA probe, crude lysate protein", "baseline": "highest signal in screen", "direction": "higher = stronger binding", "chain of UniProt Q8VWQ5 (99-173, looked up)": "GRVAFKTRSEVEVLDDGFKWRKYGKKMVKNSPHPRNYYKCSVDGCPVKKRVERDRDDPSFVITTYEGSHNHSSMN"}
{"Oligonucleotide": "AAAAAACACTCACACCTATACGGCTCAAAA", "relative absorbance": "20.2 % of maximum"}
{"Oligonucleotide": "AAAAAACGGTAAGTCGACAAAA", "relative absorbance": "23.3 % of maximum"}
{"Oligonucleotide": "AAAAAAACCCGGCCGCCATGGTAGTAAAAA", "relative absorbance": "18.1 % of maximum"}
{"Oligonucleotide": "AAAAAAGTTTCCTACTTGTGTCTGTGAAAA", "relative absorbance": "16.9 % of maximum"}
{"Oligonucleotide": "AAAAAAGGGGTCCTTTTCCAATGTCTAAAA", "relative absorbance": "53.3 % of maximum"}
{"Oligonucleotide": "AAAAAACCTTACTGTTGATTCTGGTTAAAA", "relative absorbance": "40.1 % of maximum"}
{"Oligonucleotide": "AAAAAATTCTAACTTAGCCTATGTCCAAAA", "relative absorbance": "48.6 % of maximum"}
{"data": "Other studies, line by line"}
{"Molecule": "PhoQ, residues 284 288 289 292 302 303 AGHLVA", "target": "PhoP, residues 12 14 15 18 19 LHATL (Escherichia coli, UniProt P23836)", "test": "Sort-seq, measured: YFP reporter", "test system": "E. coli", "setting": "PhoQ-PhoP variant library, added: 10 µM Mg2+", "scale": "baseline: high Mg2+ state, higher = stronger signaling", "endpoint": "fold induction", "value": 0.26}
